Measured values collected from several papers.
Protocols differ between the studies behind these lines. Values joined by “and” are separate records of one study, mostly repeats; a detail may differ. Numbers after ± are the reported error.
Genome polyprotein protease: Genome polyprotein, protease (Hepatitis C virus genotype 1b, UniProt O92972)
Genome polyprotein NS3 helicase domain: Genome polyprotein, NS3 helicase domain (Hepatitis C virus genotype 1b, UniProt Q9WMX2)
SRC SH3-SH2-kinase domain: Proto-oncogene tyrosine-protein kinase Src, SH3-SH2-kinase domain (SRC, Gallus gallus, UniProt P00523)
TACR1: Substance-P receptor (TACR1, Homo sapiens, UniProt P25103)
PTPN6: Tyrosine-protein phosphatase non-receptor type 6 (PTPN6, Homo sapiens, UniProt P29350)
FAP: Prolyl endopeptidase FAP (FAP, Homo sapiens, UniProt Q12884)

For `C=CCn1c(=S)[nH]c2cc3ccccc3cc2c1=O`, the IC50 was 20.4 µM (Genome polyprotein protease; enzyme activity, inhibitor, FRET).
`Cc1ccc2nc(-c3ccc4nc(-c5ccc6nc(-c7ccc(N)cc7)sc6c5)sc4c3)sc2c1S(=O)(=O)O` has an IC50 of 15 ± 4 µM (Genome polyprotein NS3 helicase domain; ATPase activity, inhibitor, malachite green).
For `N#Cc1c(-c2ccc(Cl)cc2)cc(-c2cccs2)nc1SCC(=O)O`, the IC50 was 31.3 µM (KAT2A (Homo sapiens, UniProt Q92830); enzyme activity, inhibitor, radiometric).
For `CCOc1cncc(-c2ccc(NC(=O)C(CC)c3ccnc(NS(=O)(=O)C4CC4)n3)nc2)n1` (centres unmarked), the IC50 was 0.023 µM (Ctps2 (Mus musculus, UniProt P70303); cell viability; CTPS-null Jurkat with mouse CTPS2; 3 days).
For `[2H]c1c(NS(C)(=O)=O)c([2H])c2c(C(=O)c3ccc(OCCCN(CCCC)CCCC)cc3)c(CCCC)oc2c1[2H]`, the IC50 was 80.4 µM (NADH dehydrogenase complex I (Rattus norvegicus, UniProt A6K8N6+P03889+Q641Y2); oxygen consumption rate; isolated rat heart mitochondria; with: NADH).
`NC(=O)[C@@H]1CCCNC(=O)[C@H](Cc2ccc([N+](=O)[O-])cc2)NC(=O)[C@H](Cc2ccccc2)NC(=O)[C@H](CC2CCCCC2)NC(=O)/C=C/C(=O)N1` has an IC50 of 0.006 ± 0.002 µM (SRC SH3-SH2-kinase domain; enzyme activity, inhibitor, Z'-LYTE FRET; Src residues 83-533, with: 50 µM ATP).
`Cc1ccccc1-c1cc(N2CCN(C)CC2)ccc1N(C)C(=O)C(C)(C)c1cc(C(F)(F)F)cc(C(F)(F)F)c1` has an IC50 of 0.316 µM (TACR1; IP1 accumulation, antagonist, HTRF; 90 min preincubation, with: substance P 10 nM).
For `COc1ccc([C@@H]2CC(=O)c3c(O)cc(O[C@@H]4O[C@H](CO[C@@H]5O[C@@H](C)[C@H](O)[C@@H](O)[C@H]5O)[C@@H](O)[C@H](O)[C@H]4O)cc3O2)cc1O`, the IC50 was greater than 100 µM (SLCO1B1 (Homo sapiens, UniProt Q9Y6L6); 8-FcA uptake, inhibitor, flow cytometry; HEK293 expressing SLCO1B1; 10 min, with: 8-FcA 2.5 µM).
With `COc1ccc(Cl)cc1NC(=O)Nc1cc(C)nc2ccccc12` the IC50 was 2 µM and 1.5 µM (Trypanothione synthetase (Trypanosoma brucei brucei, UniProt Q586P2); enzyme activity, BIOMOL Green phosphate release; 1 h preincubation).
With `C/C(=N\NC(N)=S)c1ccc2c(c1)sc1nc(=O)c(C#N)cn12` the IC50 was 2.62 µM (DNA gyrase (gyrA/gyrB, Escherichia coli, UniProt P0AES4+P0AES6); enzyme activity, inhibitor).
For `CC(CO)C1CCC2(C)C3=CCC4C5(CCC(OC5=O)C4(C)C)C3=CCC12C` (centres unmarked), the IC50 was 6.18 µM (PTPN6; enzyme activity, inhibitor, absorbance).
The IC50 of `COc1ccc2nc3cc(Cl)ccc3c(NCCCCc3c(N)nc(N)nc3N)c2c1` is reported as 59 ± 5 µM (Muscleblind-like protein 1, with (CCUG)6 RNA (Homo sapiens, UniProt Q9NR56); MBNL1-RNA binding, gel mobility shift; no tRNA, with: 0.1 nM (CCUG)6 RNA, 350 nM MBNL1).
`O=C(Cn1nc(C(F)(F)F)c2c1CCCC2)N(Cc1ccccc1)Cc1ccccc1` gave an IC50 of greater than 100 µM (Trypanothione synthetase (Trypanosoma brucei, UniProt Q586P2); enzyme activity, inhibitor).
The IC50 of `OC[C@@H]1NC[C@H](O)[C@@H]1O` is reported as 1000 µM (Mannosyl-oligosaccharide alpha-1,2-mannosidase 1B (mns1B, Aspergillus phoenicis, UniProt Q12563); enzyme activity, inhibitor, mass spectrometry).
For `O=C1/C=C\C(=O)N[C@@H](CC2CCCCC2)C(=O)N[C@@H](Cc2ccccc2)C(=O)N[C@@H](CCCNC(=O)c2cnccn2)C(=O)NCC[C@@H](C(=O)O)N1`, the IC50 was 0.13 µM (SRC (Gallus gallus, UniProt P00523); enzyme activity, inhibitor; kinase domain; with: 250 µM ATP).
With `CC1(CN)CCN(c2cnc(Sc3cccc(Cl)c3Cl)c(N)n2)CC1` the IC50 was greater than 100 µM (PTPN6; enzyme activity, inhibitor, fluorescence).
`NC(=O)[C@@H]1CCCNC(=O)[C@H](Cc2ccc([N+](=O)[O-])cc2)NC(=O)[C@H](Cc2c(F)c(F)c(F)c(F)c2F)NC(=O)[C@H](CC2CC2)NC(=O)/C=C/C(=O)N1` has an IC50 of greater than 10 µM (SRC SH3-SH2-kinase domain; enzyme activity, inhibitor, Z'-LYTE FRET; Src residues 83-533, with: 50 µM ATP).
For `CC(C)NCc1ccc(C[C@@H]2NC(=O)[C@@H](Cc3c[nH]c4ccccc34)NC(=O)[C@H](Cc3ccccc3)NC(=O)[C@H](N)CSSC[C@@H](C(=O)N[C@@H](Cc3ccc4ccccc4c3)C(N)=O)NC(=O)[C@H](Cc3ccc(O)c(I)c3)NC2=O)cc1`, the IC50 was 0.689 µM (SSTR1 (Homo sapiens, UniProt P30872); ligand displacement, radioligand; cell membranes).
With `O=S(=O)(Nc1cscn1)c1c(F)cc(NCc2c(F)ccc(F)c2CN2CCC2)cc1F` the IC50 was 33.6 µM (SCN8A (Homo sapiens, UniProt Q9UQD0, R1626A); ion current, inhibitor, patch clamp; R1626A mutant).
`CNC(=O)N(C)c1ccc(C(=O)Nc2ccc(F)cc2C(=O)Nc2ccc(Cl)cn2)cc1` has an IC50 of 0.0005 µM (F10 (Homo sapiens, UniProt P00742); enzyme activity, inhibitor, absorbance).
For `Cc1ccccc1-c1cc(N2CCN(Cc3ccccc3)CC2)ccc1N(C)C(=O)C(C)(C)c1cc(C(F)(F)F)cc(C(F)(F)F)c1`, the IC50 was 0.316 µM (TACR1; nuclear ERK activity, antagonist, FRET biosensor; HEK293T; 30 to 90 min preincubation, with: substance P 10 nM).
`Cn1c(=S)[nH]c2cc3ccccc3cc2c1=O` has an IC50 of 11 µM (Genome polyprotein protease; enzyme activity, inhibitor, FRET).
`CC[C@H](C)[C@H](NC(=O)[C@H](CC(C)C)NC(=O)c1ccco1)C(=O)NCC(=O)N[C@@H](CCCN=C(N)N)C(=O)N[C@@H](CC(C)C)C(=O)N[C@@H](CCCN)C(N)=O` has an IC50 of 3.29 µM (F2RL1 (Homo sapiens, UniProt P55085); ligand displacement).
`C=C1C(=O)O[C@@H]2[C@H]3C(CO)=CC(=O)C3=C(C)C[C@H](O)[C@@H]12` gave an IC50 of 52.8 µM (MAL12 (Saccharomyces cerevisiae S288c, UniProt P53341); enzyme activity, inhibitor, absorbance).
The IC50 of `CC(C)n1nc(-c2ccc3cc(OCc4cccc(Cl)c4)ccc3c2)c2c(N)ncnc21` is reported as 0.027 µM (Tyrosine-protein kinase HCK, SH3 (HCK, Homo sapiens, UniProt P08631, K245P/K248P); enzyme activity, inhibitor).
For `Cc1ccc(/N=C/c2ccc(Cl)cc2Cl)cc1`, the IC50 was no more than 379 µM (Xanthine dehydrogenase/oxidase, oxidase form (XDH, Bos taurus, UniProt P80457); enzyme activity, inhibitor).
`CC[C@H](C)[C@H](NC(=O)[C@H](CCCCN)NC(=O)[C@H](CC(C)C)NC(=O)CNC(=O)[C@@H]1CCCN1C(=O)[C@H](CC(N)=O)NC(=O)[C@H](CCCNC(=N)N)NC(=O)[C@H](CCCCN)NC(=O)[C@H](CCCCN)NC(=O)CNC(=O)[C@H](CCCCN)NC(=O)[C@H](CO)NC(=O)[C@H](C)NC(=O)[C@@H](N)Cc1ccc(O)cc1)C(=O)N1CCC[C@H]1C(=O)N[C@@H](CCCCN)C(=O)O` has an IC50 of 16 µM (Mitogen-activated protein kinase 14 (Rattus norvegicus, UniProt P70618, D315S/D316E/E317A); kinase activity, inhibitor, competitive kinase).
The IC50 of `O=S(=O)(NCc1nc(-c2ccccc2)no1)c1cc(Cl)ccc1Cl` is reported as 16 µM (Trypanothione synthetase (Trypanosoma brucei, UniProt Q586P2); enzyme activity, inhibitor).
`O=C(Cn1cc([N+](=O)[O-])cc(Br)c1=O)c1cc2cc(Cl)ccc2[nH]1` has an IC50 of 4.55 ± 0.16 µM (DNA repair protein RAD52 homolog, with RPA and ssDNA (RAD52, Homo sapiens, UniProt P43351); inhibitor, FRET).
`NS(=O)(=O)c1ccc(-n2nc(C(F)(F)F)cc2-c2ccc(F)cc2F)cc1` gave an IC50 of 2.8 µM (Cyclooxygenase-2 (Canis lupus familiaris, UniProt Q8SPQ9); PGE2 formation, inhibitor; dog whole blood; with: LPS).
The IC50 of `CCOC(=O)N1CCC(Oc2nc3c(c(=O)n(C)c(=O)n3C)n2CCC(C)C)CC1` is reported as greater than 57 µM (ALDH1B1 (Homo sapiens, UniProt P30837)).
With `O=C1Nc2ccc(-c3ccc(C(=O)N4CCCC4)cc3)cc2/C1=C/c1ccc(N2CCNCC2)cc1` the IC50 was 0.163 µM (FGFR3 (Homo sapiens, UniProt P22607); enzyme activity, inhibitor).
`O=C(O)[C@H](Cc1c[nH]c2ccccc12)N1C(=O)c2ccccc2C1=O` — result for IC50: “no inhibition” (DNMT1 (Homo sapiens, UniProt P26358); methyltransferase activity, inhibitor; up to 400 µM, with: SAM 0.5 µM, hemimethylated DNA 2 µM).
For `CC(=O)N[C@@H](CCCNC(=N)N)C(=O)NCCOCCOCC(=O)N[C@H](C)C(=O)N1CCC[C@H]1B(O)O`, the IC50 was roughly 0.09 µM (FAP; enzyme activity, inhibitor, western blot).
With `N#C[C@@H]1CCCN1C(=O)CNC(=O)c1ccnc2ccc(/C=C/C(=O)NCc3cn(CCOCCOCCOCCNC(=O)CCCC[C@@H]4SC[C@@H]5NC(=O)N[C@@H]54)nn3)cc12` the IC50 was 0.0092 µM (FAP; enzyme activity, inhibitor, fluorescence; with preincubation).
For `CCC(NC(=O)C(CC(C)C)NC(=O)NCc1ccccc1)C(=O)C(=O)NCc1cc(OC)cc(OC)c1` (centres unmarked), the IC50 was 0.106 µM (Calpain-2 catalytic subunit (Capn2, Mus musculus, UniProt O08529); enzyme activity, inhibitor; mouse pons-cerebellum membranes; with: calcium 2 mM).
The IC50 of `N#C/C(=C\c1ccc(O)c(O)c1)C(=O)c1ccc(O)c(O)c1` is reported as 3.6 ± 0.2 µM (Genome polyprotein NS3 helicase domain; DNA binding, fluorescence polarization; with: Cy5-dT15 DNA 5 nM).
The IC50 of `CN1CCc2cc(Nc3ncc(C(F)(F)F)c(NCc4cc[nH]n4)n3)ccc2C1` is reported as 0.0337 µM (MARK2 (Homo sapiens, UniProt Q7KZI7); enzyme activity, inhibitor, FRET).

Excerpt of the above:
For `[2H]c1c(NS(C)(=O)=O)c([2H])c2c(C(=O)c3ccc(OCCCN(CCCC)CCCC)cc3)c(CCCC)oc2c1[2H]`, the IC50 was 80.4 µM (NADH dehydrogenase complex I (Rattus norvegicus, UniProt A6K8N6+P03889+Q641Y2); oxygen consumption rate; isolated rat heart mitochondria; with: NADH).
`NC(=O)[C@@H]1CCCNC(=O)[C@H](Cc2ccc([N+](=O)[O-])cc2)NC(=O)[C@H](Cc2ccccc2)NC(=O)[C@H](CC2CCCCC2)NC(=O)/C=C/C(=O)N1` has an IC50 of 0.006 ± 0.002 µM (SRC SH3-SH2-kinase domain; enzyme activity, inhibitor, Z'-LYTE FRET; Src residues 83-533, with: 50 µM ATP).
